Assay results gathered from unrelated publications.
Parts stem from different laboratories: compare values within a part only.

Set 1 — method: RNA Bind-n-Seq; form: RNA; medium: in vitro; tested at: not given; relative to: input RNA pool; reading: higher = stronger binding; measurement: bound/input enrichment
Target: RING finger protein unkempt homolog, zinc fingers 1-6, GST-SBP tag (UNK, Homo sapiens, UniProt Q9C0B0, residues 30-357)
Notes: RNA with constant flanks, human-mouse chimeric sites, ends assumed
Residues (chain): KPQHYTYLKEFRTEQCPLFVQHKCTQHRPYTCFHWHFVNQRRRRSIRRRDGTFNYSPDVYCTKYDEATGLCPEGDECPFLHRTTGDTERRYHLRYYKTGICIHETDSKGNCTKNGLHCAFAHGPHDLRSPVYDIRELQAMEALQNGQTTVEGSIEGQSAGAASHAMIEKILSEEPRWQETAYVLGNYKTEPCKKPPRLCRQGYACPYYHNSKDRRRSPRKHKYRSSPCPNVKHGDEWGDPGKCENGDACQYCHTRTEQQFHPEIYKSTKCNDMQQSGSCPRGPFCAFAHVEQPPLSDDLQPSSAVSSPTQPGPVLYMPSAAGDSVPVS
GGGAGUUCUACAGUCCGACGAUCGAUCCACAGUGGUCUGAGGAGCAACUCAUUGCUGCAAAAUUUUGCUUUGCUGGCCUUGUUAUAGGGCAGACUGAAGUGGACAUCAUGAGUCAUGCCACACAAGCUAUAUUUGAAAUACUGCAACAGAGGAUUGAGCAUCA: 0.158 ratio
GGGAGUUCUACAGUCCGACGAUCUCUUAACUUAUUCAUUUCUUAUUUUUAUAUAGCUAGAUAAAUAUUGUUAGUCUUAGACAAUAGCUCACAUUUUUUGAGAAGCAUGCCCUCCCUGUCCAUUGGGCCCAUAACAUGACCCAGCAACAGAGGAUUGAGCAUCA: 139 ratio
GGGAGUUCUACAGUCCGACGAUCACACAAUAUGAGACCAACAGCUUGGACUUCAAAGUUGGGGCAGAUGGGACAGUCUUCGCCACCCGGGAGCUGCAGGUCCCCUCCGAGCAGGUGGCCUUCACGGUGACUGCAUGGGACAGCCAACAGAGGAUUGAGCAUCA: 0.193 ratio
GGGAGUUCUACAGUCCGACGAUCGAAACAUUUAAAUUUAAAGAAGCUGUUGUUCUAGGAAGUACGGACUUCCUAGAAGAUGAUAUAGAGAAAAUUGUAGAAGAACUGGGGAAAGAGUAUAAGGGCAACGCCUACCAUCUGAUGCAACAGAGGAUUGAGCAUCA: 1.23 ratio
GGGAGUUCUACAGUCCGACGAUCCUGGCACUCUAUCAGAUAUAUUAAUUUUUUAAUGUAGAUGUAAUUUUAAAAAUGAAUGGCUAGUUUACACGUUUAACUAGGGUUUUACUAUAUAUGUGUACAUAUGUAUAUGUAUUUAUACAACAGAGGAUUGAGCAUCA: 3.95 ratio
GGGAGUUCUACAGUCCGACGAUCUUGAAAACUGAUUCAAGUAAGUUUGAGUAUCACAAUGUUAGCUUUCUAAUUCCAUAAAAGUACUUGGUUUUUACAGUUUAUAAUCUGCAAUCCAUCAAGCGCCAUUUGUAAAGAGCAACUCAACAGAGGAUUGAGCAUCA: 0.41 ratio
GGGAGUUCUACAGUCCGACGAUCUUACCCGAAAAUGAAGAUGAGCUGGAGAGCACCAAUAGGCGCUACACCAAGAGGGACUGCAGCACUUUCCUCAGAACUAGUGAGACGGGCAUCGUGGACCAGGUCAUGGUCACUCUCAACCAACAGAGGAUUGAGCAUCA: 0.255 ratio
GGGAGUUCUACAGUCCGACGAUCAGAGAAAUGAGAAAGAAUCUUACACAAGAAGAGAUGCAAAGAAUGUCUACUAGAGUCCUUUUAGCCACUCUUUCCAUUCCUAUUACUCCUGAGCGAACGGAUAUUGCUCGACUUUUGGAUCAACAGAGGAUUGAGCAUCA: 0.153 ratio
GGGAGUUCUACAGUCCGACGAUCCUGUGUGUGCUGAAUAAAUGGCUUGUAAGAACUGUCCUCCAAGCUGUAACCCAUGCUGUUAUUAUAGUUGCUGCAAAAUGUUCUUCCUGAUAUUGAUUUUAUUUGUUCUGACUCUCCCUCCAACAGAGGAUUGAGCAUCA: 1.27 ratio
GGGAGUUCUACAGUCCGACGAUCAGAUUCCCCCUCCUGAGGCCUUCUCCAAAGUUGGAGUCUCUUACAGAUGCCUCAUCCCCUGUUAGCGUUUUAGUUUGGACCACCCAGCCUUGGACGAUUCCCGCCAACCAGGCAAUUUGCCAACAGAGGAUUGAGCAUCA: 1.69 ratio
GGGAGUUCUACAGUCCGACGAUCAACAGAUUGUCUUUAAGCAUUCCAAGCGAGAAUGCUGGGGUGAUCAUUGUUGCCCAUGUGCCUUCUGUAAUAGAUGGAAUGCUGUUCAUCCUUGAUGCUUUCCUUCACUCCAGAAUUGUUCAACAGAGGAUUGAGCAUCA: 0.0932 ratio

Set 2 — method: protein-binding microarray; form: double-stranded DNA, one strand shown; medium: in vitro; tested at: 2540 nM top; notes: 60-bp whole probe; with: salmon DNA 0.4 mg/ml; relative to: random background probes; reading: higher = stronger binding; measurement: fitted relative affinity; constant ends, left off below: GCCTAGCAC … GTCTTGATTCGCTTGACGCTGCTG
Target: Interferon regulatory factor 3, full length, phosphomimetic (IRF3, Homo sapiens, UniProt Q14653, residues 1-427, S386D/S396D/S398D/S402D/T404D/S405D)
Construct (chain): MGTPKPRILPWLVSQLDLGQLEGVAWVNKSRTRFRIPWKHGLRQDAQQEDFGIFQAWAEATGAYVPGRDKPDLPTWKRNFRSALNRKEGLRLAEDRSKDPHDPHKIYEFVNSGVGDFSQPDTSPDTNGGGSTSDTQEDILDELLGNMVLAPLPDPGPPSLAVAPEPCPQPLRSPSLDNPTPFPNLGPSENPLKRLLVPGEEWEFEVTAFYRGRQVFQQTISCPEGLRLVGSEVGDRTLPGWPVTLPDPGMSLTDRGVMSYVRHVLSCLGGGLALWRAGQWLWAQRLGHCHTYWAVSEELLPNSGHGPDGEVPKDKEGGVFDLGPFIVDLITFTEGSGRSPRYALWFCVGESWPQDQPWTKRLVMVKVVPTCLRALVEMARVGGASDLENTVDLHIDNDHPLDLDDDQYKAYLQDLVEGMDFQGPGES
GGCGGTATCGACACTGGGGACGTGCTA: 0.494 z-score
GACAGTCTCCTTCTCCTGACGTGCTAG: 4.97 z-score
TTAGATAACGGGTATCGATTAGTGCTA: -0.013 z-score
GACGGTTTCGATTATCGGGACGTGCTA: 5.71 z-score
TCAGAACTGGGGACTGGATTAGTGCTA: -0.436 z-score
TTAGGACTGGACGCTGGGTTAGTGCTA: -0.939 z-score
TACAGGTTCTCTTTTATTTTGTGCTAG: 1.68 z-score
TCAGAATTGAAAATTAGTACTGTGCTA: 0.245 z-score
TTAGATTCCAGTTTCGGTTAGTGCTAG: 6.28 z-score
GACGGACTAGACACTGGGGACGTGCTA: -0.557 z-score
TCATCTTTCTAATTCAAACTGTGCTAG: 2.33 z-score
TCAGCTTTCCTCGTGATACTGTGCTAG: 1.25 z-score
TTAGAACTGGGGTTTCTATTAGTGCTA: -0.145 z-score
TCAGATCTGCCGTCCCACTCAGTGCTA: 0.42 z-score
GAAGGACTGGGGTTTCGGGACGTGCTA: 0.531 z-score
TCATTTTTTCTAATTGAACTGTGCTAG: 1.46 z-score
CCATTTTGTGTTTTCATTTTGTGCTAG: 2.88 z-score
GACGGACTGGGACTGGAGACGTGCTAG: -0.736 z-score
TTCGAACTGGGGTATCGATTAGTGCTA: -0.063 z-score
TCATGTACGTCGTTTCCCACTGTGCTA: 1.25 z-score
GACGATCTCCGACTGGAGACGTGCTAG: 0.406 z-score
TTAGATAACAGTCTCGATTAGTGCTAG: -0.0292 z-score
TTAGGTATCGACACTGGTTTAGTGCTA: 0.347 z-score

Set 3 — method: protein-binding microarray; form: double-stranded DNA, one strand shown; medium: in vitro; tested at: not given; reading: higher = stronger binding; measurement: E-score
Target: Myc proto-oncogene protein, bHLH-zipper, MAX partner unstated (MYC, Homo sapiens, UniProt P01106, residues 368-449)
Sequence of UniProt P01106 (368-449, looked up): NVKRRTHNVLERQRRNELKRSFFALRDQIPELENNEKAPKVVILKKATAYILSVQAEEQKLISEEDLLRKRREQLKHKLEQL
Notes: k-mer, scored over probes, only values ≥0.25
CGGTCACA: 0.251
GGCGTGTA: 0.32
CATGGATC: 0.273
AAACACAC: 0.262
GCGATCAC: 0.29
ACCATATG: 0.402
CGGGCACG: 0.357
GTGCGCGA: 0.287
CACGTGCG: 0.496
TAACACGA: 0.31
ACGCCACC: 0.295
CGTGGTAG: 0.38
AGGTGTGG: 0.27
ACAACCCC: 0.264
CATGTGAA: 0.379
CACGTCTC: 0.267
AGCATGTA: 0.342
CACACACG: 0.32
CATGCCGC: 0.419
ACCGCGTG: 0.488
ACGAGGAG: 0.328
CCTCCCAC: 0.253
AAAGCATG: 0.433
AGGTGGTG: 0.258
ATCACGTG: 0.477

Set 4 — method: protein binding microarray; form: double-stranded DNA, one strand shown; medium: in vitro; tested at: not given; relative to: not given; reading: higher = stronger binding; measurement: E-score
Target: Histone acetyltransferase KAT6A, winged helix 1, GST fusion (KAT6A, Homo sapiens, UniProt Q92794, residues 1-85)
Notes: 8-mer, flanks averaged, mean of 2 arrays, mostly near background
Target sequence (chain): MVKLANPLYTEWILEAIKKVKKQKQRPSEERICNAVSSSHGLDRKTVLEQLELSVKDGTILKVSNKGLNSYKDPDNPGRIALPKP
AGCGAGCC: 0.168
ATATGATG: -0.224
CACAAATA: -0.0941
CCAACTGC: 0.0806
GCTCTTCC: 0.0671
GCCTAAAA: -0.169
GCTCGTCC: -0.12
GCACTGCA: -0.177
ATCATCTA: -0.106
CCCCTCAG: -0.0608
AGTTCACC: 0.00732
CGCGGTTC: 0.4
AACATACC: -0.0134
CTTGAGCA: -0.206
ATCTTAAA: -0.175
AATTACGT: -0.205
CATAAGGA: -0.215
AACCCCCA: 0.0216
AACGGGCC: 0.268
GACGATCA: -0.204

Set 5 — method: universal PBM; form: double-stranded DNA, one strand shown; medium: in vitro; tested at: not given; reading: higher = stronger binding; measurement: E-score
Target: Sal-like protein 4, full length isoform B (SALL4, Homo sapiens, UniProt Q9UJQ4-2, residues 1-616)
Notes: 8-mer, flanks averaged, mean of replicates
Residues (chain): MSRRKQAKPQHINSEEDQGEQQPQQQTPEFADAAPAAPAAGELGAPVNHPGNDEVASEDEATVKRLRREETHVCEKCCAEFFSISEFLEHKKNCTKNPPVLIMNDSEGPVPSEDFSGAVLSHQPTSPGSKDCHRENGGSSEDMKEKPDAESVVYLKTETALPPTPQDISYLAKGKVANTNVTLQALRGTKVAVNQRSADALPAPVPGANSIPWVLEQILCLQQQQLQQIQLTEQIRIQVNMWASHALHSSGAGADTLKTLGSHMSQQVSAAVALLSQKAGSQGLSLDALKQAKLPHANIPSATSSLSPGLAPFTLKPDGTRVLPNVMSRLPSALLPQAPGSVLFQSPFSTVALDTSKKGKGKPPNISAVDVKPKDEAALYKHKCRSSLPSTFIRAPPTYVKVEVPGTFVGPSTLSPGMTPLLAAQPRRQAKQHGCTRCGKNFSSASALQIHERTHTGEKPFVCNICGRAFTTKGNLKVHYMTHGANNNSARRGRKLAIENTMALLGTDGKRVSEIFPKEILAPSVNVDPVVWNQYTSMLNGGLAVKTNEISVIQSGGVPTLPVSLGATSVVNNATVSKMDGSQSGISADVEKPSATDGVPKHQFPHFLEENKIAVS
ATCTCCGC: -0.135
CTCCGAGC: -0.206
ATCCTTGA: 0.0339
ACTAGCGC: -0.155
AGGATTAC: 0.065
GATGATAC: 0.101
AAGCGGTA: -0.0603
ATCTCGGC: -0.178
ACTGCTAG: -0.0883
AGTATGCA: 0.121
CCCGGGTC: -0.363
AGCTACCC: -0.116
CATGAAAG: 0.0892
ATGAGATC: 0.146
CTAGGCCC: -0.3
ATCAAAAT: 0.227
GTGCGCCA: -0.203
AAAGGAGG: 0.0339
AGGCATCC: -0.0546
CCCTGCCC: -0.269
ACTAGGAC: -0.0269
GGGGACCC: -0.406
AGTGCATC: 0.0328
ATATTCAA: 0.355
TCTTGCAA: 0.058

Excerpt of the above (set 3):
AGGTGTGG: 0.27
CGGTCACA: 0.251
AGGTGGTG: 0.258
ACGAGGAG: 0.328
ATCACGTG: 0.477
CACGTGCG: 0.496
CATGTGAA: 0.379
ACCATATG: 0.402
